Literature values, collected from citations in different studies.
Protocols differ between the studies behind these lines. ± gives the spread as reported.

CCCCCCCCCCCCCC(=O)N[C@H](CO)[C@H](O)c1ccc([N+](=O)[O-])cc1  IC50 (acid ceramidase; enzyme activity, radiometric; HaCaT): ~10 µM
c1cc(-c2nnc3scnn23)ccn1  IC50 (OCRL; enzyme activity, inhibitor): 0.71 µM
CCCCCCCC/C=C\CCCCCCCC(=O)N[C@H](CCCCN)C(=O)O  IC50 (glycine transporter 2; glycine uptake): 0.025 µM
CNc1ccc(C(=O)C=C(O)C(F)(F)C(F)(F)F)cn1  IC50 (Plasmodium falciparum formate-nitrite transporter; L-lactate transport, inhibitor, radiolabelled uptake; yeast): 0.13 ± 0.02 µM
CCc1cccc(Sc2cc(C(=O)N3Cc4ccccc4C3)ccc2O)c1  IC50 (Hsp90α human): 0.46 µM
O=C(CCCOc1ccc(Cl)cc1)N[C@H]1CCOC1=O  IC50 (CviR, Chromobacterium violaceum; reporter gene, antagonist, vioA-gfp reporter): 2 µM
COc1cc(CNc2ccc(C(=O)C=C(O)C(F)(F)C(F)(F)F)cn2)cc(OC)c1OC  IC50 (Plasmodium falciparum formate-nitrite transporter; L-lactate transport, inhibitor, radiolabelled uptake; yeast): 2.11 ± 0.32 µM
C[C@H](CN(C)Cc1ccccc1)NC(=O)c1ccc(-c2noc(C(F)(F)F)n2)cc1  IC50 (HDAC5): 0.0012 ± 0.00017 µM
CC(=O)Nc1ccc(NC(=O)c2ccc(C(C)=O)o2)cc1  IC50 (urea transporter UT-A1; inhibitor): < 8 µM
COc1cccc(-c2cc(F)ccc2[C@H]2Cc3nc(N)nc(C)c3C(=O)N2)n1  IC50 (Grp94; inhibitor): 0.0085 µM
CS(=O)(=O)Nc1ccc(-c2cncc(-c3cccc4cc[nH]c34)c2)cc1  IC50 (PI5P4Kα; inhibitor): 2 µM
CC(C)=CCC/C(C)=C\CCn1cc(CC(C)(P(=O)(O)O)P(=O)(O)O)nn1  IC50 (geranylgeranyl diphosphate synthase; enzyme activity, inhibitor): 0.086 µM
Cc1cc(=O)n(C)c2cc(N3C(=O)CC[C@@H](NS(=O)(=O)CC(C)C)[C@@H]3c3ccccc3)ccc12  IC50 (BRD9 bromodomain; binding): 5 µM
CN(CCN)Cc1ccccc1Sc1ccccc1Cl  IC50 (PRMT1; enzyme activity, inhibitor, radiometric): 0.0053 µM
COc1ccc(C)cc1S(=O)(=O)Nc1ccc(Cl)c(N2CCCS2(=O)=O)c1  IC50 (urea transporter UT-A1; inhibitor): ~1 µM
CC(C)CCN(C(=O)CCCCCCC(=O)NO)c1ncc(C(=O)NCCCn2ccnc2)s1  IC50 (NAMPT): 0.015 µM
O=C(CCc1ccc(Br)cc1)N[C@H]1CCOC1=O  IC50 (TraR; traI-lacZ reporter, inhibitor): 1 µM
CC(C)NCCCn1c(Sc2cc(Cl)cc(Cl)c2)nc2c(N)ncnc21  IC50 (Hsp90α; inhibitor): 27.3 µM
CCNc1ccc(C(=O)C=C(O)C(F)(F)C(F)(F)F)cn1  IC50 (Plasmodium falciparum formate-nitrite transporter; L-lactate transport, inhibitor, radiolabelled uptake; yeast): 0.12 ± 0.01 µM
COc1cc2ncc3[nH]c(=O)n([C@H](C)c4ccccn4)c3c2cc1-c1c(C)noc1C  IC50 (BRD2): 0.5 µM
CN(C)C/C=C/C(=O)Nc1ccc(C(=O)Nc2cccc(Nc3cc(-c4c[nH]c5ccccc45)ncn3)c2)cc1  IC50 (ABL1 kinase; enzyme activity, inhibitor): < 0.32 µM
CCc1ccc(-c2cc(C(N)=O)c(NC3CCC(O)CC3)cc2C)cc1 (stereo not shown)  IC50 (Hsp90α human): > 50 µM
O=C(C=C(O)C(F)(F)C(F)(F)F)c1ccc(NCc2ccc(F)cc2)nc1  IC50 (Plasmodium falciparum formate-nitrite transporter; L-lactate transport, inhibitor, radiolabelled uptake; yeast): 0.39 ± 0.03 µM
CCCOc1ccc(C=C2C(=O)NN(c3ccccc3)C2=O)c2cnccc12  IC50 (P2Y12 receptor): 0.01 µM
CC(C)(C)Nc1ccc(C(=O)C=C(O)C(F)(F)C(F)(F)F)cn1  IC50 (Plasmodium falciparum formate-nitrite transporter; L-lactate transport, inhibitor, radiolabelled uptake; yeast): 0.37 ± 0.04 µM
O=C(Nc1ccc(OC(F)(F)F)cc1)NC1CCN(C(=O)C2CC2)CC1  IC50 (soluble epoxide hydrolase (rat); enzyme activity): 0.0099 ± 0.0001 µM
CNc1cccc(CCOc2ccc(C[C@H](NC(=O)c3c(Cl)cccc3Cl)C(=O)O)cc2)n1  IC50 (integrin α5β1; K562): 0.007 µM
FC(F)(F)C(F)(F)c1cc(-c2cccnc2)n[nH]1  IC50 (Plasmodium falciparum formate-nitrite transporter; L-lactate transport, inhibitor, radiolabelled uptake; yeast): > 1000 µM
CC(C)=CCC/C(C)=C\CCn1cc(CC(P(=O)(O)O)P(=O)(O)O)nn1  IC50 (geranylgeranyl diphosphate synthase; enzyme activity, inhibitor): 0.075 µM
CC(C)c1cc(C(=O)N2Cc3ccccc3C2)c(O)c2cnoc12  IC50 (Grp94): 5 µM
Nc1n[nH]c2c1c(Nc1ccc(F)cc1)nc1ccccc12  IC50 (Escherichia coli beta-glucuronidase; enzyme activity): 0.14 µM
Cc1nn(C)c2c(C(C(=O)O)N3CC(OCCCCc4ccc5c(n4)NCCC5)C3)cccc12 (stereo not shown)  IC50 (integrin α5β1; cell-based): 0.04 µM
CCc1c(-c2cccc(NNC(=O)[C@H](C)c3cc(F)cc(F)c3)c2)ccc(O)c1C  IC50 (SGK1; literature value): 3.35 µM
O=C(C=C(O)C(F)(F)C(F)(F)F)c1ccc(NC2CC2)nc1  IC50 (Plasmodium falciparum formate-nitrite transporter; L-lactate transport, inhibitor, radiolabelled uptake; yeast): 0.19 ± 0.02 µM
Cc1ccc(Cn2cc(CNC3=C(Cl)C(=O)c4cccnc4C3=O)nn2)cc1  IC50 (CDC25C): 0.09 µM
CN(C)CCCOc1ccc2c(c1)CN(C(=O)c1cc(C(=O)N3Cc4cccc(F)c4C3)ccc1O)C2  IC50 (Hsp90α human): > 10 µM
COc1cccc(/C=C2/SC(=N)NC2=O)c1OC  IC50 (urea transporter B (UT-B); urea transport, inhibitor): ~43 µM
Cc1[nH]c(=O)c(CNC(=O)c2cc(Cl)c3c(c2C)O[C@@](C)([C@H]2CC[C@H](N(C)C)CC2)O3)c(C)c1O  IC50 (EZH1; enzyme activity, inhibitor): 0.24 µM
O=C(CCc1ccc(C(F)(F)F)cc1)N[C@H]1CCOC1=O  IC50 (LuxR; reporter gene, luxI-luxCDABE reporter): 2 µM
O=C(C=C(O)C(F)(F)C(F)(F)F)c1ccc(N2CCNCC2)nc1  IC50 (Plasmodium falciparum formate-nitrite transporter; L-lactate transport, inhibitor, radiolabelled uptake; yeast): 17.3 ± 6.5 µM
Cc1cc(NC2CCN(C(=O)OC3CCN(C(=O)/C=C/CN(C)C)C3)CC2)n2ncc(C(C)C)c2n1 (stereo not shown)  IC50 (CDK7; inhibitor): 0.0928 µM
O=C(Cc1ccc(Br)cc1)N[C@H]1CCOC1=O  IC50 (TraR; traI-lacZ reporter, inhibitor): 6 µM
CCCc1cc2cc(-n3nc(CC)c4c3CC(C)(C)CC4=O)cc(NC3CCC(O)CC3)c2c(=O)[nH]1 (stereo not shown)  IC50 (Hsp90α human): > 10 µM
